Published values collected from several papers.
Each line is one published result; not all experiments were run side by side. Several values in a cell are separate wells, animals, samples, runs or records. Numbers after ± are the reported error.

Cn1ncc(-c2nc(N[C@H]3CC[C@H](N)CC3)ncc2Cl)c1CC1CC1 gave a half-life of 1850 min (HPLC-MS/MS; patients, plasma; oral, 11 mg, day 5).
N=C(Nc1ccccc1)Nc1ccccc1 gave a half-life of 54.4 min (substrate depletion; phenobarbital/β-naphthoflavone-induced rat liver microsomes; 1 µM, pH 7.4, 37 °C, with: NADPH).
CC(C)C[C@@H](NC(=O)[C@H](Cc1ccccc1)NC(=O)CNC(=O)[C@@H](C)NC(=O)[C@@H](N)Cc1ccc(O)cc1)C(=O)O gave a half-life of ~730 min (HPLC-UV; 20% rat brain homogenate; pH 7.4).
With COc1ccc(C(=O)OCOP(=O)(CC/C=C(\C)CO)Oc2ccc(C(C)C)cc2)cc1 (centres unmarked) the half-life was 0.85 min (50% CD1 mouse plasma; 100 µM, pH 7.5, 37 °C).
For O=C(O)Cc1ccccc1Nc1c(Cl)cccc1Cl, the half-life was 5.5 min (human liver microsomes; 1 µM, pH 7.4).
The half-life of C/C(=C\CCP(=O)(OCOC(=O)c1ccccc1)Oc1ccc(C(C)C)cc1)CO (centres unmarked) is reported as 1.2 min (50% CD1 mouse plasma; 100 µM, pH 7.5, 37 °C).
The half-life of [Cl][Ru-]([Cl])([Cl])[Cl].[Na+].c1ccc2[nH]ncc2c1.c1ccc2[nH]ncc2c1 is reported as 7320 min (ICP-MS, measured: total ruthenium; advanced solid tumour patients, plasma; iv infusion, 80 mg/m2, cycle 1 cohort mean).
O=C/C=C/c1ccccc1 gave a half-life of 4.84 ± 0.05 min (human liver microsomes; 10 µM, pH 7.4).
CC[C@H](C)[C@H](NC(=O)[C@H](CO)NC(=O)[C@H](CC(=O)O)NC(=O)[C@H](CC(C)C)NC(=O)[C@H](CCCCN)NC(=O)[C@H](CCC(N)=O)NC(=O)[C@H](CC(N)=O)NC(=O)[C@H](CO)NC(=O)[C@H](CCCNC(=N)N)NC(=O)[C@H](CCCNC(=N)N)NC(=O)[C@@H](NC(=O)[C@H](Cc1c[nH]c2ccccc12)NC(=O)[C@H](CCC(=O)O)NC(=O)[C@H](CCCCN)NC(=O)[C@H](CO)NC(=O)[C@H](CCC(=O)O)NC(=O)[C@H](CCC(=O)O)NC(=O)[C@H](CC(C)C)NC(=O)[C@H](CC(=O)O)NC(=O)[C@H](CO)NC(=O)[C@H](CCCCN)NC(=O)[C@@H](NC(=O)[C@H](CCCCN)NC(=O)[C@H](CC(N)=O)NC(=O)[C@H](CC(C)C)NC(=O)[C@@H](NC(=O)[C@@H](NC(=O)[C@H](CO)NC(=O)[C@@H](NC(=O)[C@H](CC(=O)O)NC(=O)[C@@H](NC(=O)[C@@H]1CCCN1C(=O)[C@H](CC(=O)O)NC(=O)[C@H](CC(C)C)NC(=O)[C@H](C)NC(=O)[C@@H](NC(C)=O)C(C)C)[C@@H](C)CC)[C@@H](C)CC)[C@@H](C)CC)C(C)C)[C@@H](C)CC)[C@@H](C)CC)C(N)=O has a half-life of 0.333 min (UPLC; Tris-buffered saline; pH 7.6, 23 °C, with: proteinase K 8 µg/mL).
For CCC(CNc1nc(-c2cn3ccnc3cc2C)nc2ccccc12)c1ccccc1 (centres unmarked), the half-life was 9 min and 9.1 min (human liver microsomes).
C[C@]1(CO)Cc2ncn(-c3ccc(C#N)c(Cl)c3)c2C(=O)O1 has a half-life of 324 min (healthy Japanese adults, plasma; 3 mg once daily, after first dose, multiple dose).
C/C=C1/CN2CC[C@]34C(=C(C(=O)OC)[C@H]1C[C@H]23)Nc1ccccc14 gave a half-life of 30.3 ± 0.7 min (rat liver microsomes, male; 1 µM, pH 7.4, protein 1 mg/mL, with: NADPH 1 mM).
The half-life of CSCC[C@H](NC(C)=O)C(=O)N[C@H]1CSSC[C@@H](C(=O)NCC(=O)N[C@@H](CO)C(=O)NCC(=O)N[C@@H](CO)C(=O)N[C@@H](CC(=O)O)C(=O)N[C@@H](Cc2ccc(O)cc2)C(=O)N[C@@H](CCCCN)C(=O)N[C@@H](CC(=O)O)C(=O)N[C@@H](CC(=O)O)C(=O)N[C@@H](CC(=O)O)C(=O)N[C@@H](CC(=O)O)C(=O)N[C@@H](CCCCN)C(N)=O)NC(=O)[C@H](Cc2ccccc2)NC(=O)[C@@H]2CCCN2C(=O)[C@H](Cc2c[nH]c3ccccc23)NC(=O)[C@H](CC(C)C)NC(=O)[C@H](CCSC)NC(=O)[C@H](Cc2c[nH]cn2)NC(=O)[C@H](Cc2ccccc2)NC(=O)[C@H](Cc2c[nH]cn2)NC(=O)[C@H]([C@@H](C)O)NC(=O)[C@H](Cc2ccccc2)NC1=O is reported as ~210 min (human plasma 80%; 1 µM, pH 7.4, 37 °C).
CC[C@H](C)[C@@H]1NC(=O)[C@H](Cc2ccc(O)cc2)NC(=O)[C@@H](N)CSSC[C@@H](C(=O)N2CCC[C@H]2C(=O)N[C@@H](CC(C)C)C(=O)NCC(N)=O)NC(=O)[C@H](CC(N)=O)NC(=O)[C@H](CCC(N)=O)NC1=O gave a half-life of 175000 min (phosphate buffer; 0.1 mg/mL, pH 4.5, 40 °C).
For CCCCCCCCCCCCCCOC(=O)ONc1ccn([C@@H]2O[C@H](CO)[C@@H](O)[C@H]2O)c(=O)n1, the half-life was ~10 min (human plasma; 2 µM, 37 °C).
With N#Cc1cnccn1 the half-life was 72500 min (PBS with 5% acetonitrile; 250 µM, pH 7.4, no glutathione).
The half-life of CC(C)C[C@@H](NC(=O)[C@H](Cc1ccccc1)NC(=O)CNC(=O)[C@@H](C)NC(=O)[C@H](Cc1ccc(O)cc1)NC(=O)c1ccc[n+](C)c1)C(=O)O is reported as ~480 min (rat whole brain homogenate (20% w/w); pH 7.4, 37 °C).
With CC(O)(CS(=O)(=O)c1ccc(F)cc1)C(=O)Nc1ccc(C#N)c(C(F)(F)F)c1 (centres unmarked) the half-life was 25.4 min (substrate depletion; phenobarbital/β-naphthoflavone-induced rat liver microsomes; 1 µM, pH 7.4, 37 °C, with: NADPH).
The half-life of COc1ccc(C(=O)OCOP(=O)(CC/C=C(\C)COC(C)=O)Oc2ccc(C(C)C)cc2)cc1 (centres unmarked) is reported as 1.1 min (50% CD1 mouse plasma; 100 µM, pH 7.5, 37 °C).
CC[C@H](C)[C@H](NC(=O)[C@H](Cc1ccccc1)NC(=O)[C@H](CC(=O)O)NC(=O)[C@H](CCCNC(=N)N)NC(=O)[C@H](Cc1ccccc1)NC(=O)[C@H](Cc1ccccc1)NC(=O)[C@H](CCCCN)NC(=O)[C@H](CO)NC(=O)[C@H](CC(C)C)NC(=O)[C@H](CCCNC(=N)N)NC(=O)[C@H](CCSC)NC(=O)[C@H](C)N)C(=O)N[C@@H](CC(C)C)C(=O)N[C@@H](CCC(N)=O)C(=O)N[C@@H](CCCNC(=N)N)C(=O)N[C@@H](CCCCN)C(=O)N[C@@H](CCCCN)C(=O)O gave a half-life of 90 min (trypsin/chymotrypsin in ammonium carbonate; 0.066 mM, pH 8.0, 37 °C, with: trypsin/chymotrypsin 0.05 µg/mL).
The half-life of CC(C)CC(=O)OC[C@H]1O[C@@](C#N)(c2ccc3c(N)ncnn23)[C@H](O)[C@@H]1O is reported as 34.2 min (dog whole blood; 5 µM).
O=S(=O)(F)c1cc(C(F)(F)F)cc(C(F)(F)F)c1 gave a half-life of < 1 min (reactivity with N-α-acetyl-lysine, HPLC-MS; BBS buffer with acetonitrile; 1 mM, pH 10.2).
C[C@H]1N=C(c2ccccc2F)c2cc(Br)ccc2-n2cnc(C(=O)O)c21 gave a half-life of 435 min (mouse liver S9 fraction; 10 µM, glucuronidation).
Nc1ncnc2c1ncn2[C@@H]1O[C@@H]2COP(=O)([S-])O[C@@H]3[C@H](O)[C@@H](COP([O-])(=S)O[C@H]2[C@H]1O)O[C@H]3n1cnc2c(N)ncnc21.[Na+].[Na+] (some centres unmarked) has a half-life of 4020 min (HPLC; 20% FBS in PBS; 100 µM, pH 7.4, 37 °C).
For CC(C)C[C@H](NC(=O)[C@H](Cc1ccccc1)NC(=O)[C@H](Cc1ccccc1)NC(=O)Cc1ccc(-c2ccccc2)cc1)C(=O)N[C@@H](CCCCN)C(=O)N[C@@H](CCCNC(=N)N)C(=O)N[C@H](C(=O)N[C@@H](Cc1c[nH]c2ccccc12)C(=O)N[C@@H](CCCCN)C(=O)N[C@@H](CCCNC(=N)N)C(=O)O)C(C)C, the half-life was 2.45 min (monkey liver microsomes).
With CC(C)C[C@@H](NC(=O)[C@H](Cc1ccccc1)NC(=O)CNC(=O)[C@@H](C)NC(=O)[C@H](Cc1ccc(O)cc1)NC(=O)[C@@H]1CCCN1C(=O)[C@@H]1CCCN1C(=O)c1ccc[n+](C)c1)C(=O)O the half-life was 72 min (rat medulla oblongata homogenate; 100 µM, pH 7.4, 37 °C).
CC(=O)OC/C(C)=C/CCP(=O)(OCOC(=O)CC1CCCCC1)Oc1ccc(C(C)C)cc1 (centres unmarked) gave a half-life of 3 min (50% CD1 mouse plasma; 100 µM, pH 7.5, 37 °C).
With CN(C)C/C=C/C(=O)Nc1cc2c(Nc3ccc(F)c(Cl)c3)ncnc2cc1O[C@H]1CCOC1 the half-life was 31.1 min (pH 7.4).
CCCCCn1cc(C(=O)Nc2cccc3ccccc23)c2ccccc21 gave a half-life of 2.29 min (male human liver microsomes; 1 µM, pH 7.4, 37 °C).
With CCN1CC2(CCN(CCc3cc(F)ccc3F)CC2)O[C@H](C)C1=O the half-life was 216 ± 12 min (ferret, plasma; intraperitoneal, 1 mg/kg).
With C/C(=C\CCP(=O)(OCOC(=O)CC1CCOCC1)Oc1ccc(C(C)C)cc1)CO (centres unmarked) the half-life was 1.2 min (50% CD1 mouse plasma; 100 µM, pH 7.5, 37 °C).
With CCC(C(=O)Nc1sc(C(N)=O)c(C)c1C(=O)OC)c1ccc(F)cc1 (centres unmarked) the half-life was 102 min (human liver microsomes; 1 µM).
CC(C)C[C@@H](NC(=O)[C@H](Cc1ccccc1)NC(=O)CNC(=O)[C@@H](C)NC(=O)[C@H](Cc1ccc(O)cc1)NC(=O)[C@H](C)NC(=O)[C@H](C)NC(=O)c1ccc[n+](C)c1)C(=O)O has a half-life of 23 min (HPLC-UV; 20% rat brain homogenate; pH 7.4).
For CC(C)[N+](C)(CCOC(=O)C1c2ccccc2Oc2ccccc21)C(C)C, the half-life was 31.6 ± 1.1 min (mouse plasma; plasma stability).
For CC(=O)OC/C(C)=C/CCP(=O)(OCOC(=O)CC1CCOCC1)Oc1ccc(C(C)C)cc1 (centres unmarked), the half-life was 0.43 min (50% CD1 mouse plasma; 100 µM, pH 7.5, 37 °C).
